Published values gathered from unrelated publications.
Numbered parts are unrelated; each lists some results of a single study. Changes are numbered by the printed parent chain.

Block 1 — target: vanadate, free oxyanion; technique: microfluidic competitive inhibition; sample: in vitro, cell-free expressed; concentration: not given; direction: lower = stronger binding
Notes: derived from inhibition constants, unchanged parent 676 nM
Parent: PafA, mature enzyme, eGFP fusion (Elizabethkingia meningoseptica, UniProt Q9KJX5); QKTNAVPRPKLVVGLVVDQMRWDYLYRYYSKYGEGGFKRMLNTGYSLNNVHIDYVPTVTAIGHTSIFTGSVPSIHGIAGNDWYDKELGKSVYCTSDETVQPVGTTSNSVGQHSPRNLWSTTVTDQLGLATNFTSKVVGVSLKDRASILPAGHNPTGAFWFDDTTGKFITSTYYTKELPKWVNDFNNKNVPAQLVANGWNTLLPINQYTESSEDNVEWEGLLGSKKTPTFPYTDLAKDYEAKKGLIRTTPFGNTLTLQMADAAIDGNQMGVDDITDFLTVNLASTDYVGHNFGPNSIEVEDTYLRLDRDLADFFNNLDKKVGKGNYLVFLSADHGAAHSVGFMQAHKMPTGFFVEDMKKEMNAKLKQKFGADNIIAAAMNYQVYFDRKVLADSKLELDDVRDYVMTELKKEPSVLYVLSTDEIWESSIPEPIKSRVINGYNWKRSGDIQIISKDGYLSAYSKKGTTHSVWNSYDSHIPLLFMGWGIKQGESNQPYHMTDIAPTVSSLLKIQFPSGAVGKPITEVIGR
Substitution | oxyanion analog dissociation constant
E209G | 564 nM
E299V | 666 nM
P501G | 693 nM
G127A | 630 nM
T105G | 1.03 µM
K322G | 683 nM
T121G | 750 nM
E216G | 772 nM
Q1G | 612 nM
G219V | 719 nM
S490V | 2.78 µM
T465G | 535 nM
W82V | 5.63 µM
P411G | 867 nM
F276G | 1.11 µM
H495V | 524 nM
S451V | 731 nM
R307G | 695 nM
A191G | 594 nM
Y383G | 881 nM
K319V | 778 nM
N49V | 577 nM
K179G | 703 nM
L326V | 540 nM
R144G | > 71.1 µM

Block 2 — technique: protein-binding microarray; molecule type: double-stranded DNA, one strand shown; sample: in vitro; concentration: not given; direction: higher = stronger binding
Target: Transcriptional repressor CTCF (CTCF, Homo sapiens, UniProt P49711, residues 1-727, full length assumed)
Notes: k-mer, scored over probes, only values ≥0.25
Construct (chain): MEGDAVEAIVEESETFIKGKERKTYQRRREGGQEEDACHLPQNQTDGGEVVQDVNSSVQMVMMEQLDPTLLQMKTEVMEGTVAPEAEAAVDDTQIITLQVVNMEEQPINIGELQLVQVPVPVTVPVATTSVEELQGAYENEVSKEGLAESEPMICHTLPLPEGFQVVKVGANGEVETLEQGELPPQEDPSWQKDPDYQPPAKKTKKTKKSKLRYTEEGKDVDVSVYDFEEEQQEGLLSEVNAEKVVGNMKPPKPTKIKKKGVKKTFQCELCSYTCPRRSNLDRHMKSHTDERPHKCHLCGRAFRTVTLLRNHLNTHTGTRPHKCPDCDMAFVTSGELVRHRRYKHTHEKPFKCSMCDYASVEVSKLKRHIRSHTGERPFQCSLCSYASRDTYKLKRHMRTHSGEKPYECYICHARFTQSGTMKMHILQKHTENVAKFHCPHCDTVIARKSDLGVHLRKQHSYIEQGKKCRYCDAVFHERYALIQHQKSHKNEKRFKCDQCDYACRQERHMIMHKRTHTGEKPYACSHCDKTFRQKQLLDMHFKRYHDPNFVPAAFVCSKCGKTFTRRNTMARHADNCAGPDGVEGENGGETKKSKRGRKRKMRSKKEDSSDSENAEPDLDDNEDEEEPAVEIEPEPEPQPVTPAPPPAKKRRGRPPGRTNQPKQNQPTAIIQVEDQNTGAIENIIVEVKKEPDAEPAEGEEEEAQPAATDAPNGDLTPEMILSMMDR
Oligonucleotide | E-score
ACAAATTC | 0.273
AAAACGGC | 0.345
ACCGCTAG | 0.306
GTATGTTA | 0.252
ATCATGAT | 0.269
GTATAACA | 0.359
AATTTATC | 0.289
GCTTATAA | 0.262

Block 3 — target: CCNE2, cyclin fold, Cln2 fusion (human); technique: yeast growth competition, sequencing; sample: yeast; notes: strong parent motif; baseline: not given; direction: higher = stronger binding
Parent: viral docking peptide; TSVRRALFTGGSD; partner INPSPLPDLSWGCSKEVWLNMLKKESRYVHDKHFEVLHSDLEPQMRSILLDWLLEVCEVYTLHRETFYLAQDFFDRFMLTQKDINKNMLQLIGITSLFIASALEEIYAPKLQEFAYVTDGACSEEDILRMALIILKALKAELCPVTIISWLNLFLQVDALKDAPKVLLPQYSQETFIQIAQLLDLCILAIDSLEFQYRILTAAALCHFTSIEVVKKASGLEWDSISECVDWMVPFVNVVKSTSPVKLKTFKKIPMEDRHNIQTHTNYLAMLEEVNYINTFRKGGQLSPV
Substitution | normalised enrichment score
TSPRRALFTGGSD [V3P] | 0.625
TSVRRALFTGQSD [G11Q] | 4.05
TSVIRALFTGGSD [R4I] | 1.89
TRVRRALFTGGSD [S2R] | 3.5
TSVRRLLFTGGSD [A6L] | 1.85
TSVRRALETGGSD [F8E] | -0.297
TSVRLALFTGGSD [R5L] | 0.252
TSGRRALFTGGSD [V3G] | 0.184
TSVRRALNTGGSD [F8N] | 0.289
TSVNRALFTGGSD [R4N] | 0.672

Block 4 — technique: competition protein-binding microarray; molecule type: double-stranded DNA, one strand shown; sample: in vitro; concentration: 2 µM; with: Pho4 competitor, 0.05 µM; direction: higher = stronger binding; all sequences stand within: … GTCTTGATTCGCTTGACGCTGCTG
Target: Centromere-binding protein 1, full length, His-tagged (CBF1, Saccharomyces cerevisiae, UniProt P17106, residues 1-351)
Sequence of UniProt P17106 (whole entry, looked up): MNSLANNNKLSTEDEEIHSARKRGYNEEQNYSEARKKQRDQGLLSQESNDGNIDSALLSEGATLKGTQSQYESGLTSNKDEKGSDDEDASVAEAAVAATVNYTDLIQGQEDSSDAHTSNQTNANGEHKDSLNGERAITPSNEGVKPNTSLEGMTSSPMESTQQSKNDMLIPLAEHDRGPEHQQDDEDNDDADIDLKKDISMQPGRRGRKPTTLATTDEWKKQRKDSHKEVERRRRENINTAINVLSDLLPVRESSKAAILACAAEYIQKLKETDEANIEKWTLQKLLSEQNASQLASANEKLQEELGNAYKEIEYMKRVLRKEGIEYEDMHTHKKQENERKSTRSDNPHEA
Notes: whole 60-bp probe, lowest competitor level
Oligonucleotide | fluorescence intensity [a.u.]
TTCCGTCTTGGGAGTCAGGTGGAAGTAACCTGCGGG | 144
GTCTTGTCTCATTGTTGTGTGGGTGTCCCCACTTCA | 78.9
AAACTGTCAAGGTTCCTCGTGACTCGGACGAATGTT | 592
CGTCCTAGTGATTGTCACAAAACTTCCATGAGGAAG | 81.9
CCTTGAGGAGAACTTCTAGTATATCTACATACCTAA | 83.6
CTTTCCCGATCTTGCTATGTGGGTGTAGCACATTTG | 83.6
ATTGAGATAAAAATAAACGTGGTTACTCCCGAGGCA | 130
CCAATCTGGGCAAAGCGCGTGAAGATCAAGACTCGC | 63.5

Other studies, line by line
SMILES | target | assay | setting | measurement | value
CCCOc1ccc([C@H]2[C@H](C(=O)O)[C@@H](c3ccc4c(c3)OCO4)CN2CC(=O)Nc2c(CC)cccc2CC)cc1 | 5-hydroxytryptamine receptor 2A (HTR2A, Homo sapiens, UniProt P28223) | cell-free assay | 10 µM | inhibition | 4.84%
